Published values from different studies.
Each line is one published result; not all experiments were run side by side. Values joined by “and” are separate records of one study, mostly repeats; a detail may differ.
lasR: Transcriptional activator protein LasR (lasR, Pseudomonas aeruginosa, UniProt P25084)
UniProt P25084, sequence (whole entry, looked up): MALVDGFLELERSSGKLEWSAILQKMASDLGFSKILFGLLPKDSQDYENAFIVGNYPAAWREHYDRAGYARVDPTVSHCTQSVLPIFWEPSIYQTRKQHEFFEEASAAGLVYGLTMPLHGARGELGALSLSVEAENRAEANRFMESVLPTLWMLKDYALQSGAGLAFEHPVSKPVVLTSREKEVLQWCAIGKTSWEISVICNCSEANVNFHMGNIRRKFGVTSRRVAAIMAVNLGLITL
ZAP70: Tyrosine-protein kinase ZAP-70 (ZAP70, Homo sapiens, UniProt P43403)
UniProt P43403, sequence (whole entry, looked up): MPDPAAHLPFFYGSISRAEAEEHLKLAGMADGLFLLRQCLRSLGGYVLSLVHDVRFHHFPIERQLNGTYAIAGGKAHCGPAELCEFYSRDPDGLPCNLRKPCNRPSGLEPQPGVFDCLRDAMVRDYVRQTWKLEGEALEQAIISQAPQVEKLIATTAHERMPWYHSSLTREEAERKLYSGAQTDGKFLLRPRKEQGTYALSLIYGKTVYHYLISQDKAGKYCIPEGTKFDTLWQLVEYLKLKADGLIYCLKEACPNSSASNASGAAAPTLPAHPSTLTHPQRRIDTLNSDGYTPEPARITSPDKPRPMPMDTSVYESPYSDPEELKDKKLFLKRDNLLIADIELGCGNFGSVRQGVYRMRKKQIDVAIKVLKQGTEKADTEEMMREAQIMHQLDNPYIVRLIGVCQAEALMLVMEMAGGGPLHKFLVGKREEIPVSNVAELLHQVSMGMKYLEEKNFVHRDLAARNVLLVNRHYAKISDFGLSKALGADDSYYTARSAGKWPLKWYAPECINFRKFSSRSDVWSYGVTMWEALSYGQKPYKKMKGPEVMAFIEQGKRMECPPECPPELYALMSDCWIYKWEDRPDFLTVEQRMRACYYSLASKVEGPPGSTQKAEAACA
Uncharacterized hydrolase SAUSA300_2518: Uncharacterized hydrolase SAUSA300_2518 (Staphylococcus aureus, UniProt Q2FDS6)
UniProt Q2FDS6, sequence (whole entry, looked up): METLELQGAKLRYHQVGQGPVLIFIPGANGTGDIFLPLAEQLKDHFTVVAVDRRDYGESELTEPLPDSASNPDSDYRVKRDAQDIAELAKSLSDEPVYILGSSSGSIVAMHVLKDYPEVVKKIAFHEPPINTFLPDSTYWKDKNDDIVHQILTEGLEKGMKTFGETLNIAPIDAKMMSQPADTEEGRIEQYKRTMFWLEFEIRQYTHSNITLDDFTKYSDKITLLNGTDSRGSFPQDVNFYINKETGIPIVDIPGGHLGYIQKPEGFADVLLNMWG
UniProt P43140, sequence (whole entry, looked up): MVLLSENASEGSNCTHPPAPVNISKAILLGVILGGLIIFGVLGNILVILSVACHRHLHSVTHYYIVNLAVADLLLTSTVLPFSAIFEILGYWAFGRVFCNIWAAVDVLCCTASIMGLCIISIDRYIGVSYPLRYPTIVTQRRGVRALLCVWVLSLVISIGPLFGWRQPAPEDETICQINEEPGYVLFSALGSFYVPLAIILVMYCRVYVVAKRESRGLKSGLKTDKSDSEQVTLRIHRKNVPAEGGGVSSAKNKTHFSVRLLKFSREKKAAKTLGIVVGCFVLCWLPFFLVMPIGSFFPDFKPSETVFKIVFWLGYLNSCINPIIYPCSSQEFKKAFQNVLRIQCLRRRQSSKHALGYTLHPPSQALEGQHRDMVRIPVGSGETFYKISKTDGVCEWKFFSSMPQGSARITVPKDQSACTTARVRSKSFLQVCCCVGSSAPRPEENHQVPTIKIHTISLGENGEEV
UniProt P21860, sequence (whole entry, looked up): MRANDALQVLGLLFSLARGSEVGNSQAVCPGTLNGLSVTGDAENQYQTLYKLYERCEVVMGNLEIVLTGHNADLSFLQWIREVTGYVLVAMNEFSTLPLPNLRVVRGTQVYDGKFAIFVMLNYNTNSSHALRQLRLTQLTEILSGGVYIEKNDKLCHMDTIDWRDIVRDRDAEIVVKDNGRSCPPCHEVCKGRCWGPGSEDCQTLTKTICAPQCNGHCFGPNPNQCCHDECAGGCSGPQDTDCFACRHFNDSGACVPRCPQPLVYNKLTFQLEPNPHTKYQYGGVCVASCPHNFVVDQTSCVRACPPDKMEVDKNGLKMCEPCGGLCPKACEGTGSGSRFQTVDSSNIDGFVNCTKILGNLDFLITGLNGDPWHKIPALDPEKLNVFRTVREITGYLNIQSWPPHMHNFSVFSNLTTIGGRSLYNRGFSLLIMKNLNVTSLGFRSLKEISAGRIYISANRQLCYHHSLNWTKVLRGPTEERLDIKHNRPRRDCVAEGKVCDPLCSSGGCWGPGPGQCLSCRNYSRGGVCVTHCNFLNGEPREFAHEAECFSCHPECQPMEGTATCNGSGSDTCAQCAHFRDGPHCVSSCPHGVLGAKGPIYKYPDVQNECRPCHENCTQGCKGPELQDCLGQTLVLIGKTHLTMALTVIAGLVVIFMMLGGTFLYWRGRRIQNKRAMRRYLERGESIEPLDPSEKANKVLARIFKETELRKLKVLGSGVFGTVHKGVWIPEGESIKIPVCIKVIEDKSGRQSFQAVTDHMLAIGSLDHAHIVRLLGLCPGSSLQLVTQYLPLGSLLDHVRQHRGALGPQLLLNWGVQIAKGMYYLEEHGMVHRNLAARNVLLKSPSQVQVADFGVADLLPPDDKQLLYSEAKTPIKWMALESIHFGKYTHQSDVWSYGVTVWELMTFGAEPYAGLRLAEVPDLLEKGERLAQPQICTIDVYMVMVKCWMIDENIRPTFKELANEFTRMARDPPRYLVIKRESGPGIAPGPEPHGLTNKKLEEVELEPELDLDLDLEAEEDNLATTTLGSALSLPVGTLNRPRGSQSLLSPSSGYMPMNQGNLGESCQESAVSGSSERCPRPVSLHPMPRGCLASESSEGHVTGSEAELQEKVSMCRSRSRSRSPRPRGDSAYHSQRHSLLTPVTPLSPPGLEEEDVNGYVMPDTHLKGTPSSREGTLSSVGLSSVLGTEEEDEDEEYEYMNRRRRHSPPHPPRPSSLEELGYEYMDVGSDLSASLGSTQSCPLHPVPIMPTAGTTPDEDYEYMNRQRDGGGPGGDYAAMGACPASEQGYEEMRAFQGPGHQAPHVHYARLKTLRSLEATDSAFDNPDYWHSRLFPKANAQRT
UniProt P28566, sequence (whole entry, looked up): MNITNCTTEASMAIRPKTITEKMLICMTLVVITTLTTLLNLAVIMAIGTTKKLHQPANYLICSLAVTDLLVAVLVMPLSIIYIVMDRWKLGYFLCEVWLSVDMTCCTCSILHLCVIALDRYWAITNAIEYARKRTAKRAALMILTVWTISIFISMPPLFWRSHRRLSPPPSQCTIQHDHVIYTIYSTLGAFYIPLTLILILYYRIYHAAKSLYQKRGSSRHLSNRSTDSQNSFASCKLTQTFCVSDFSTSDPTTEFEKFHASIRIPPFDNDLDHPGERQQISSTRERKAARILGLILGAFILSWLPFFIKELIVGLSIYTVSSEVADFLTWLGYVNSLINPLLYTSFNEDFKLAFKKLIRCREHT
UniProt Q9Y2J8, sequence (whole entry, looked up): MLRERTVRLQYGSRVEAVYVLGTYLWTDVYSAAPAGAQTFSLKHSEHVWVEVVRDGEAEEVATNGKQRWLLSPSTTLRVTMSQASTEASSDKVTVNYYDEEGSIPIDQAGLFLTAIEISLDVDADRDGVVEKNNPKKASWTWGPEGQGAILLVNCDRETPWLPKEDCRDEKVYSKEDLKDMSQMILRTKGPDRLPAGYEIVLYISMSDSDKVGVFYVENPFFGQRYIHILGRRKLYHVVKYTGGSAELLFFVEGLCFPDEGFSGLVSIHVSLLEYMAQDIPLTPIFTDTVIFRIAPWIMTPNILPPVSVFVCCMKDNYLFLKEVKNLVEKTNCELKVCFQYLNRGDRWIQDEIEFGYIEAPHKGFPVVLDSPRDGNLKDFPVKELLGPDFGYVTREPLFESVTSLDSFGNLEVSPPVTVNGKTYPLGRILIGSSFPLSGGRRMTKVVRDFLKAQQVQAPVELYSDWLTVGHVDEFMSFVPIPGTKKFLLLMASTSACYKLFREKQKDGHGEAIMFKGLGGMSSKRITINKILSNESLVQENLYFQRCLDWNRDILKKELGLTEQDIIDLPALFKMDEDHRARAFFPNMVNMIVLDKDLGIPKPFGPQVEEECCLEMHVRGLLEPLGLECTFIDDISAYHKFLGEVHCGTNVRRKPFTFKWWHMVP
UniProt Q9H093, sequence (whole entry, looked up): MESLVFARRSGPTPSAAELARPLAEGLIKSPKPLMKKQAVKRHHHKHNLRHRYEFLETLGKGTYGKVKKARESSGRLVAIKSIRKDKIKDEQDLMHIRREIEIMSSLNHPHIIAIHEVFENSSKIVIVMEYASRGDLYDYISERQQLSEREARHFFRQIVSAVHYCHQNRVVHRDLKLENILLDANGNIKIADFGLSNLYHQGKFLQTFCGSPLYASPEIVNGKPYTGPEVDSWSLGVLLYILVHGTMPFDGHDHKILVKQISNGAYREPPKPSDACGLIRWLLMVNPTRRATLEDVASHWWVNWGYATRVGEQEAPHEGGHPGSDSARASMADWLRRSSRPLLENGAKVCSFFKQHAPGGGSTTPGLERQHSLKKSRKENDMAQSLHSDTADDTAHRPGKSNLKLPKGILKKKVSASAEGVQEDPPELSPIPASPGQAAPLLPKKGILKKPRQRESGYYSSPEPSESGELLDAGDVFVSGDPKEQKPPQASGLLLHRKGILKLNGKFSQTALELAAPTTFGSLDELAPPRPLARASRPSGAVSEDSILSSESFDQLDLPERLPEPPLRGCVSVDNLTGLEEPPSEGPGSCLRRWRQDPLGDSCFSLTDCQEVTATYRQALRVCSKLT

Compound	target	assay	system	conditions	inhibition
CC(=O)NC[C@@H]1[C@@H](O)C[C@H]2[C@H](O)C[C@@H](CO)N12	β-N-acetylglucosaminidase	enzyme activity, inhibitor, colorimetric	Canavalia ensiformis	8.56 nM, added: p-nitrophenyl GlcNAc substrate	44.7% and 40.7%
Cc1cc(-c2ccc3ccccc3c2)nnc1NCCN1CCN(C)CC1	Prostaglandin G/H synthase 1 (PTGS1, Homo sapiens, UniProt P23219)	enzyme activity		concentration not given	negative
N[C@H](C(=O)N1CCCC1)C1CCN(c2nccc3c(-c4ncc(Cl)cc4Cl)cccc23)CC1	Protein-arginine deiminase type-2 (PADI2, Homo sapiens, UniProt Q9Y2J8)	enzyme activity, inhibitor		9.6 µM, added: Ca2+ 0.25 mM	99.4%
CCCCCCCCCC(=O)CC(=O)Nc1ccccc1O	lasR	reporter gene, antagonist	Pseudomonas aeruginosa PAO-JP2	100 µM, plasI-LVAgfp reporter, added: OdDHL 150 nM	6%
N#Cc1ccc(N2N=C3c4ccc(C(=O)O)cc4CCC3C2C2CCCC2)cc1Cl (stereo not shown)	N6-adenosine-methyltransferase catalytic subunit, with METTL14 (METTL3, Homo sapiens, UniProt Q86U44)	enzyme activity		10 µM	0%
CS(C)(=O)=Nc1ccc(-c2ccc(-c3nc4cc(O[C@@H]5CO[C@H]6[C@@H]5OC[C@H]6O)[nH]c4cc3F)cc2)cc1	ZAP70	enzyme activity, inhibitor		10 µM	-1%
C[C@H](NCc1ccc(-c2ccc(C(F)(F)F)cc2)cc1)C(N)=O	SRSF protein kinase 3 (SRPK3, Homo sapiens, UniProt Q9UPE1)	cell-free assay, competition with immobilised ligand		1 µM	21%
O=C(CN1CN(c2ccccc2)C2(CCN(C(=O)c3cnc4[nH]ncc4c3)CC2)C1=O)NCC(F)(F)F	NUAK family SNF1-like kinase 2 (NUAK2, Homo sapiens, UniProt Q9H093)	inhibitor		concentration not given	< 50%
C=CC(=O)Nc1cc(-c2nn(C3CCC(N4CCN(C(C)=O)CC4)CC3)c3ncnc(N)c23)ccc1Oc1ccccc1 (stereo not shown)	Receptor tyrosine-protein kinase erbB-3 (ERBB3, Homo sapiens, UniProt P21860)	inhibitor, KiNativ profiling	biochemical	2 µM	75.9%
O=C(O)c1ccccc1/C=N/Nc1nc(-c2ccccc2Cl)cs1	Ephrin type-A receptor 3 (EPHA3, Homo sapiens, UniProt P29320)	enzyme activity, inhibitor		1 µM	-4.59%
O=C(Cc1ccc(Br)cc1)N[C@H]1CCOC1=O	lasR	reporter gene, antagonist	Escherichia coli JLD271	10 µM, pSC11 and pJN105L plasmids, added: OdDHL 2 nM	66%
CC12CC(O)C3CC1(OC1OC(CO)C(O)C(O)C1O)C3(COC(=O)c1ccccc1)C(=O)O2 (stereo not shown)	3',5'-cyclic-AMP phosphodiesterase 4D (PDE4D, Homo sapiens, UniProt Q08499)	enzyme activity, inhibitor, radiometric		50 µM	23.1%
O=C(Nc1ccncc1)c1ccccc1OS(=O)(=O)F	Uncharacterized hydrolase SAUSA300_2518	enzyme activity, inhibitor, fluorogenic substrate		50 µM, 1 h preincubation	92%
CCCCCCCCCC(=O)CC(=O)N[C@H]1CCOC1=O	lasR	reporter gene, antagonist	Escherichia coli JLD271	10 µM, pSC11 and pJN105L plasmids, added: OdDHL 2 nM	-79%
CN(/N=C/c1ccccc1C(=O)O)c1nc(-c2ccccc2Cl)cs1	Ephrin type-A receptor 4 (EPHA4, Homo sapiens, UniProt P54764)	enzyme activity, inhibitor		1 µM	-22.1%
CC(C)[C@H]1NC(=O)C[C@H]2/C=C/CCSSC[C@@H](NC1=O)C(=O)N[C@H](Cc1cccc3ccccc13)C(=O)NCC(=O)O2	Platelet-derived growth factor receptor alpha (PDGFRA, Homo sapiens, UniProt P16234, T674I)	enzyme activity, inhibitor		10 µM	10.2%
CCCCCCCCCC(=O)NC1CCCC1	lasR	reporter gene, antagonist	Escherichia coli JLD271	10 µM, pSC11 and pJN105L plasmids, added: OdDHL 2 nM	-36%
O=S(=O)(F)c1cccc2c1OCC2	Uncharacterized hydrolase SAUSA300_2518	enzyme activity, inhibitor, fluorogenic substrate		50 µM, 1 h preincubation	21.2%
CN(C)[C@H]1C[C@@]23CC[C@@]4(O2)C(=CC[C@]2(C)[C@@H](c5ccc6ccncc6c5)CC[C@H]24)C=C3[C@@H](O)[C@@H]1O	Cyclin-dependent kinase 11B (CDK11B, Homo sapiens, UniProt P21127)	ATP probe labelling, inhibitor, KiNativ profiling		1 µM	-2.2%
CN[C@@H]1[C@H](O)[C@H](NC)[C@H]2O[C@]3(O)[C@H](O[C@@H]2[C@H]1O)O[C@H](C)C[C@H]3NC(=O)Cc1ccc(Cl)cn1	Alpha-1A adrenergic receptor (Adra1a, Rattus norvegicus, UniProt P43140)	ligand displacement, radioligand		10 µM	2%
CCOC(=O)[C@](CC)(CCCSCCOCCOCCNC(=O)c1ccc(-c2c3ccc(=N)c(S(=O)(=O)O)c-3oc3c(S(=O)(=O)O)c(N)ccc23)c(C(=O)O)c1)NC(=O)c1ccc(C2CC2)c(Cc2ccc(F)cc2)n1	ZAP70	enzyme activity, inhibitor		10 µM	39%
COc1ccccc1N1CCN(CCCCN2CCCc3ccccc3C2=O)CC1	5-hydroxytryptamine receptor 1E (HTR1E, Homo sapiens, UniProt P28566)	radioligand binding		concentration not given, added: [3H]5-HT	-11.4%

Repeated from above:
Compound	target	assay	system	conditions	inhibition
CS(C)(=O)=Nc1ccc(-c2ccc(-c3nc4cc(O[C@@H]5CO[C@H]6[C@@H]5OC[C@H]6O)[nH]c4cc3F)cc2)cc1	ZAP70	enzyme activity, inhibitor		10 µM	-1%
N[C@H](C(=O)N1CCCC1)C1CCN(c2nccc3c(-c4ncc(Cl)cc4Cl)cccc23)CC1	Protein-arginine deiminase type-2 (PADI2, Homo sapiens, UniProt Q9Y2J8)	enzyme activity, inhibitor		9.6 µM, added: Ca2+ 0.25 mM	99.4%
CCOC(=O)[C@](CC)(CCCSCCOCCOCCNC(=O)c1ccc(-c2c3ccc(=N)c(S(=O)(=O)O)c-3oc3c(S(=O)(=O)O)c(N)ccc23)c(C(=O)O)c1)NC(=O)c1ccc(C2CC2)c(Cc2ccc(F)cc2)n1	ZAP70	enzyme activity, inhibitor		10 µM	39%
